Measurements gathered from unrelated publications.
Protocols differ between the studies behind these lines. ± marks the error that the study gave.
STING1 H232R: Stimulator of interferon genes protein (STING1, Homo sapiens, UniProt Q86WV6, H232R)
UniProt Q86WV6, sequence (whole entry, unmodified, looked up): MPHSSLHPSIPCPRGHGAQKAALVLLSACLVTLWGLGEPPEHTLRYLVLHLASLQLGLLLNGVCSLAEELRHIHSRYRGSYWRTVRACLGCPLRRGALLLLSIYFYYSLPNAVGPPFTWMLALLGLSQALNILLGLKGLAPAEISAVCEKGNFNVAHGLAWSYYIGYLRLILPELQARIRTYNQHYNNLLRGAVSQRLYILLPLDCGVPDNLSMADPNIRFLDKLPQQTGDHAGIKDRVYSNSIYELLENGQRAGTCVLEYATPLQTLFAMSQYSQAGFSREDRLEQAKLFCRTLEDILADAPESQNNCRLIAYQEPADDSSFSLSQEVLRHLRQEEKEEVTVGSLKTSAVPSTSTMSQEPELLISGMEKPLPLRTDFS
UniProt P02754, sequence (whole entry, unmodified, looked up): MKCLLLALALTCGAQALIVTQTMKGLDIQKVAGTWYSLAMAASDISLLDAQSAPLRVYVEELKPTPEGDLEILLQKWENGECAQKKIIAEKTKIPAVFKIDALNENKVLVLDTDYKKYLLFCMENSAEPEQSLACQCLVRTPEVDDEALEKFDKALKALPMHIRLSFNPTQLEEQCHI
UniProt O75762, sequence (whole entry, unmodified, looked up): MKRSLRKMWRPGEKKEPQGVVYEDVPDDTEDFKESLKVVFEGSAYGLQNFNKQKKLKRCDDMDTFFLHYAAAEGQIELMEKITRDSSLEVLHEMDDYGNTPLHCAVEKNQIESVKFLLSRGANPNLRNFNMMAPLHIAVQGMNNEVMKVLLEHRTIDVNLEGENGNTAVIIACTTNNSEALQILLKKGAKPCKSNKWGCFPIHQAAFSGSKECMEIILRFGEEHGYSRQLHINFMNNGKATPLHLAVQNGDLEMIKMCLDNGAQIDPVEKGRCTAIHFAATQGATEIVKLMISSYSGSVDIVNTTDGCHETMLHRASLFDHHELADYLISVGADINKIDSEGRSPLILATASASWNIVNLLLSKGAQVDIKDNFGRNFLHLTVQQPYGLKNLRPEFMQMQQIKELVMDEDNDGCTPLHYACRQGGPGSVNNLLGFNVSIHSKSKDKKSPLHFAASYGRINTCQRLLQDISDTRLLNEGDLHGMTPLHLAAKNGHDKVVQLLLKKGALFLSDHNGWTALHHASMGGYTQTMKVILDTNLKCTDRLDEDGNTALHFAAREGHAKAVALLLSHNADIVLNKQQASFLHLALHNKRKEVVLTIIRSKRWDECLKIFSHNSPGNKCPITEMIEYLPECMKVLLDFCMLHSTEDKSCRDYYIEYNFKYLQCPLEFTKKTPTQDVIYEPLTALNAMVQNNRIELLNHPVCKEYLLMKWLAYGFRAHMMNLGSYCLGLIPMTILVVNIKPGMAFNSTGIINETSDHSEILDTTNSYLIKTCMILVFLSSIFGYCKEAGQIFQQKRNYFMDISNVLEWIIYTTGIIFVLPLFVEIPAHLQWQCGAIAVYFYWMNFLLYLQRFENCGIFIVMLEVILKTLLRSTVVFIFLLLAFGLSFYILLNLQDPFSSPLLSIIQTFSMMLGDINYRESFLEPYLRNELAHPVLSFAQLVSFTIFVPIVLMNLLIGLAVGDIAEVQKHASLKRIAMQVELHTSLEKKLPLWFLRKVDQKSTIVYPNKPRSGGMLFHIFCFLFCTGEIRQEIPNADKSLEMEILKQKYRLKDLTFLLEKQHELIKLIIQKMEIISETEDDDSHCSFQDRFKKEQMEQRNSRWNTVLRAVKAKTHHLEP
UniProt Q9SZU7, sequence (whole entry, unmodified, looked up): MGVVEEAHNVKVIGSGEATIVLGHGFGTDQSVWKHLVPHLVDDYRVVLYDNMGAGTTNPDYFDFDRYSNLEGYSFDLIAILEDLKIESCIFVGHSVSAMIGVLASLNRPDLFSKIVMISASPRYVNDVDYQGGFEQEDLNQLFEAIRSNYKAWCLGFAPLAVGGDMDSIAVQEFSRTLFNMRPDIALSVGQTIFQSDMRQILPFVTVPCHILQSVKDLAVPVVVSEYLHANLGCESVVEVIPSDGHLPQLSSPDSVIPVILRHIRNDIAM
UniProt P18825, sequence (whole entry, looked up): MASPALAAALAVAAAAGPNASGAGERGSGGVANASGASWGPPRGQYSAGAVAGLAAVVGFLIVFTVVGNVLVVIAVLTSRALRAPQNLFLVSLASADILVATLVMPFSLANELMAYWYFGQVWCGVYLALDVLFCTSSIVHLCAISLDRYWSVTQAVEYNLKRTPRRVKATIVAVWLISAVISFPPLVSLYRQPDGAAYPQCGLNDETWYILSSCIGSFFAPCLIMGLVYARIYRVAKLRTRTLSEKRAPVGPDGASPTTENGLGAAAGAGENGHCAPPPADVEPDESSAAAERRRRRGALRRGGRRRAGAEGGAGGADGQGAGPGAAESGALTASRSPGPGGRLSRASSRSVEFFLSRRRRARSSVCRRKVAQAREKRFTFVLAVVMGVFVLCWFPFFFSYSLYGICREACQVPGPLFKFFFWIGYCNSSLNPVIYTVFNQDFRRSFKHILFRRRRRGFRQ
UniProt Q6V1X1, sequence (whole entry, looked up): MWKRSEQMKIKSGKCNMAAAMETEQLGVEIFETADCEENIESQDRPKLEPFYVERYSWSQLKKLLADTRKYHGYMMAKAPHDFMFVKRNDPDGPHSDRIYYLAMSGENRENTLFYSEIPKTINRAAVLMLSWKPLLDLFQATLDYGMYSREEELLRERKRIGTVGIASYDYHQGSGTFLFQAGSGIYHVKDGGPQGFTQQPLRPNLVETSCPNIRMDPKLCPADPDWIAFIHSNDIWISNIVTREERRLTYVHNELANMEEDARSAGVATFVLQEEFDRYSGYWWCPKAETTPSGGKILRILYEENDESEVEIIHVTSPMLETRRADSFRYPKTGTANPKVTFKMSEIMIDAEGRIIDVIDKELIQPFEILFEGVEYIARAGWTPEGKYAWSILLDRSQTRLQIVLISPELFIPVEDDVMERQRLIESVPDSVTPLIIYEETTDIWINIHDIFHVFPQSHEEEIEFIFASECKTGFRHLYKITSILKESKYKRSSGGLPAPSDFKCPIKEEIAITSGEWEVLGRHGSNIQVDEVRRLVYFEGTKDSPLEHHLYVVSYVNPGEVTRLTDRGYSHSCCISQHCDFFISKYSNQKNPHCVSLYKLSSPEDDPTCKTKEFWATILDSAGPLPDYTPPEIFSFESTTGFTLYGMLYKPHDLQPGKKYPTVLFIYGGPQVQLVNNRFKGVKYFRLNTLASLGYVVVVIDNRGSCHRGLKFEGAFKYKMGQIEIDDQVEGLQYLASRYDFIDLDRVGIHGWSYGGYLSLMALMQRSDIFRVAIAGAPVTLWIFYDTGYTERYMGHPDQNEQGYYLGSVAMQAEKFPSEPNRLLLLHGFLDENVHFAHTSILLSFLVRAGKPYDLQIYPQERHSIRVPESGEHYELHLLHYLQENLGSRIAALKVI
UniProt P35968, sequence (whole entry, looked up): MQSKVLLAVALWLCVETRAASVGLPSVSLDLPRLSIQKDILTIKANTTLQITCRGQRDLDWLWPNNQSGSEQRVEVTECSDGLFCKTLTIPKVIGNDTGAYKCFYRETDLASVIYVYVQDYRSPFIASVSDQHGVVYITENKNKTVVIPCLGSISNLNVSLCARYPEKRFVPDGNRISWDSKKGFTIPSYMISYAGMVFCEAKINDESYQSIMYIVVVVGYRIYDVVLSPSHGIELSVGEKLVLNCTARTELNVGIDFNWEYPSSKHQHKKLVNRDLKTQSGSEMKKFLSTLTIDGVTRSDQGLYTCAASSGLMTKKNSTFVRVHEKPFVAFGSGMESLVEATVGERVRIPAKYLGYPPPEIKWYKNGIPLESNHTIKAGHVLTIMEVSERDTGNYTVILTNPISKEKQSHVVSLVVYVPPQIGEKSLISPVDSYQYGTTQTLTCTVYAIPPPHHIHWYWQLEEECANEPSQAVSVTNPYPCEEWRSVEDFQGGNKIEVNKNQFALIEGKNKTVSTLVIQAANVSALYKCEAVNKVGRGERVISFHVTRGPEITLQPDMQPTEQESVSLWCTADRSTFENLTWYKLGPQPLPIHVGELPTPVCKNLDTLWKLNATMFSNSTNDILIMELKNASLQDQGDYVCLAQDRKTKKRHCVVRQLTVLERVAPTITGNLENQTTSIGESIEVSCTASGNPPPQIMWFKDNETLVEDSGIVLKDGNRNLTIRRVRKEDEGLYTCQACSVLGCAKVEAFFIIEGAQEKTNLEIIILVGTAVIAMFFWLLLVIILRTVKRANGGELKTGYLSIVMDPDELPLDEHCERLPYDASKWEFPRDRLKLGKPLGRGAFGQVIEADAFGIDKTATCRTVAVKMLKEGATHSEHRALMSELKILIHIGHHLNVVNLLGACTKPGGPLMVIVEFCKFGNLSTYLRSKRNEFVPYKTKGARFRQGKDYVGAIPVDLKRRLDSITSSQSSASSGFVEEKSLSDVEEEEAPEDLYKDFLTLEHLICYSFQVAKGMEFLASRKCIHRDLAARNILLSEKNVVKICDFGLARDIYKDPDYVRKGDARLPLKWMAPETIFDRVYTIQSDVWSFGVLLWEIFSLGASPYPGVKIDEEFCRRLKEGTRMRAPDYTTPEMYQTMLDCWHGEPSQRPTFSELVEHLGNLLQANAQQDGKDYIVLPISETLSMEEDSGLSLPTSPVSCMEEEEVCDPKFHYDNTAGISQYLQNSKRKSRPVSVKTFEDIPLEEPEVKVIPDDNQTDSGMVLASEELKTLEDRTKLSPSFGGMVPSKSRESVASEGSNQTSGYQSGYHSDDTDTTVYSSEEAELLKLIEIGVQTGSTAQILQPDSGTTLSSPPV
UniProt P47936, sequence (whole entry, looked up): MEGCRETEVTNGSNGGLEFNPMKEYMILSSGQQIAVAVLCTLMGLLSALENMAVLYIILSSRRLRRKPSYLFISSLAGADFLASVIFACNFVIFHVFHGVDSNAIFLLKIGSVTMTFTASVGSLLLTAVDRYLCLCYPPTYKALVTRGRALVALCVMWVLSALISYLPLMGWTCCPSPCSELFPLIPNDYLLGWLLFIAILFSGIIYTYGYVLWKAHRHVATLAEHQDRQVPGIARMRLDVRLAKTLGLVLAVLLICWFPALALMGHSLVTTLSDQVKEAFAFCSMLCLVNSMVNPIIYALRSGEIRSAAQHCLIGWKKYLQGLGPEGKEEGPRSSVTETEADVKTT

O=C(Nc1ccc(-c2ccccc2)cc1)N[C@@H](CCNC(=O)c1ccc([N+](=O)[O-])o1)c1nc2ccccc2[nH]1 — EC50 (STING1 H232R; reporter gene, inhibitor; THP1-Dual KI-hSTING-R232; 24 h, 1 h preincubation, with: diABZI 500 nM): 4.6 µM
CC1(Cc2ccccc2)C(=O)N(c2cccc(CN3CCN(Cc4ccc(Br)cc4)CC3)c2)C1=O — Ki (Dipeptidyl peptidase 8 (Homo sapiens, UniProt Q6V1X1); enzyme activity, inhibitor, fluorescence): 0.0233 µM
Cn1ccc2c(N3CCN(CCCCOc4ccc5c(c4)NC(=O)CC5)CC3)cccc21 — Ki (ADRA2C (Homo sapiens, UniProt P18825); ligand displacement, radioligand): 0.815 µM
CC(=O)N1c2ccc(-c3ccc(CNC(=O)c4cn5cc(-c6cnc(N)nc6)nc(N6CCOCC6)c5n4)cc3)cc2CC[C@@H]1C — Kd (Bromodomain testis-specific protein, BD2 (BRDT, Homo sapiens, UniProt Q58F21); binding, competition with immobilised ligand): 0.069 µM
O=C(NCC[C@H](NC(=O)[C@H]1C[C@@H](c2ccccc2)C1)c1nc2ccccc2[nH]1)c1ccc([N+](=O)[O-])o1 — EC50 (STING1 H232R; reporter gene, inhibitor; THP1-Dual KI-hSTING-R232; 24 h, 1 h preincubation, with: diABZI 500 nM): 5.3 µM
O=P(O)(O)OP(=O)(O)OP(=O)(O)OCCCCO — Ki (DNA polymerase beta (POLB, Homo sapiens, UniProt P06746); DNA polymerase activity, inhibitor; with: 1 mM Mn2+, poly(dA)/oligo(dT)): 39 µM
CO[C@@H]1[C@H](OP(=O)(O)OC[C@H]2O[C@@H](n3cnc4c(=O)[nH]c(N)nc43)[C@H](O)[C@@H]2O)[C@@H](COP(=O)(O)OP(=O)([O-])OP(=O)(O)OC[C@H]2O[C@@H](n3c[n+](C)c4c(O)nc(N)nc43)[C@H](O)[C@@H]2O)O[C@H]1n1cnc2c(N)ncnc21 — Kd (Antiviral innate immune response effector IFIT1 (IFIT1, Homo sapiens, UniProt P09914); microscale thermophoresis; pH 7.5, with: structured cap I RNA, 35 nt): 0.034 µM
Cc1nn(-c2cccc(N)c2)c(=O)c2cnc(Nc3ccc(N4CCNCC4)cc3)nc12 — IC50 (KDR (Homo sapiens, UniProt P35968); enzyme activity, inhibitor): > 10 µM
CC(=O)c1cnc2ccc(-c3cc(Cl)c(O)c(Cl)c3)nc2c1N[C@H]1CC[C@H](CN(C)C)CC1 — Kd (Receptor-like protein kinase FERONIA (FER, Arabidopsis thaliana, UniProt Q9SCZ4, M613A); binding, SPR; mutant protein): 1.5 µM
O=C(N[C@@H](CCCCNC(=O)c1ccc([N+](=O)[O-])o1)c1nc2ccccc2[nH]1)c1ccc(-c2ccccc2)nc1 — EC50 (STING1 H232R; reporter gene, inhibitor; THP1-Dual KI-hSTING-R232; 24 h, 1 h preincubation, with: diABZI 500 nM): 3.3 µM
O=C1c2ccc3c4ccc5c6c(ccc(c7ccc(c2c37)C(=O)N1CCN1CCCCC1)c64)C(=O)N(CCN1CCCCC1)C5=O — DC50 (human telomeric G-quadruplex DNA; binding, thiazole orange displacement; pH 8): 1.85 ± 0.27 µM
O=C(O)C1OC(OC2C(C(=O)O)OC(OC3C(C(=O)O)OC(OC4C(C(=O)O)OC(O)C(O)C4O)C(O)C3O)C(O)C2O)C(O)C(O)C1O (stereo not drawn) — Kd (Beta-lactoglobulin (LGB, Bos taurus, UniProt P02754, A134V/G80D); isothermal titration calorimetry; pH 4.00, 37 °C, 50 mM KH2PO4): 234 µM
O=C(NC[C@@H](Cc1ccc(F)cc1)N1CCC(O)(C(F)(F)F)CC1)C1(c2ccc(Cl)cc2)CCCC1 — EC50 (TRPA1 (Homo sapiens, UniProt O75762, L881M)): 0.047 µM
CC(C)(C)c1noc(C(=O)N[C@@H](CCNC(=O)c2ccc([N+](=O)[O-])o2)c2nc3ccccc3[nH]2)n1 — EC50 (STING1 H232R; reporter gene, inhibitor; THP1-Dual KI-hSTING-R232; 24 h, 1 h preincubation, with: diABZI 500 nM): 14.9 µM
O=C(O)C(Cc1c[nH]cn1)N1C(=O)c2ccc3c4ccc5c6c(ccc(c7ccc(c2c37)C1=O)c64)C(=O)N(CCN1CCCCC1)C5=O (stereo not drawn) — DC50 (human telomeric G-quadruplex DNA; binding, thiazole orange displacement; pH 6): 0.78 ± 0.05 µM
O=C(NCC[C@H](NC(=O)c1cnc(-c2ccccc2)o1)c1nc2ccccc2[nH]1)c1ccc([N+](=O)[O-])o1 — EC50 (STING1 H232R; reporter gene, inhibitor; THP1-Dual KI-hSTING-R232; 24 h, 1 h preincubation, with: diABZI 500 nM): 13.8 µM
Cc1cccc2c1N(C(=O)n1ccnn1)CC2 — Kd (KAI2 (Arabidopsis thaliana, UniProt Q9SZU7, S95C); ITC; S95C mutant, mean): 28.6 µM
O=C(NCC[C@H](NC(=O)c1nc(-c2ccccc2)no1)c1nc2ccccc2[nH]1)c1ccc([N+](=O)[O-])o1 — EC50 (STING1 H232R; reporter gene, inhibitor; THP1-Dual KI-hSTING-R232; 24 h, 1 h preincubation, with: diABZI 500 nM): 12.4 µM
O=C(O)C(Cc1c[nH]cn1)N1C(=O)c2ccc3c4ccc5c6c(ccc(c7ccc(c2c37)C1=O)c64)C(=O)N(C(Cc1c[nH]cn1)C(=O)O)C5=O (stereo not drawn) — DC50 (human telomeric G-quadruplex DNA; binding, thiazole orange displacement; pH 7): > 2.5 µM
O=C(N[C@@H](CCNC(=O)c1ccc([N+](=O)[O-])o1)c1nc2ccccc2[nH]1)c1ccc(-n2cnnn2)cc1 — EC50 (STING1 H232R; reporter gene, inhibitor; THP1-Dual KI-hSTING-R232; 24 h, 1 h preincubation, with: diABZI 500 nM): > 40 µM
CCOC(=O)C(CC)(CCCSCCOCCOCCNC(=O)OC(C)(C)C)NC(=O)c1ccc(C2CC2)c(Cc2ccc(F)cc2)n1 (racemic) — Ki (Cnr2 (Mus musculus, UniProt P47936); ligand displacement, radioligand; cell membranes): 0.213 µM
